# Measured values collected from several papers.
# A part holds a random share of what one study measured.

# Set 1
# Target: Histone acetyltransferase KAT6A, winged helix 1, GST fusion (KAT6A, Homo sapiens, UniProt Q92794, residues 1-85)
# Method: protein binding microarray
# Form: double-stranded DNA, one strand shown
# Medium: in vitro
# Concentration: not given
# Notes: 8-mer, flanks averaged, mean of 2 arrays, mostly near background
# Reference: not given
# Reading: higher = stronger binding
# Residues (chain): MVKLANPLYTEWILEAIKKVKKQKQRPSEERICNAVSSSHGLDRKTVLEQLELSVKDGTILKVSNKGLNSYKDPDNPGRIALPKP
Oligonucleotide,E-score
GGAACGGA,0.233
GGAGGTCA,-0.0952
CCTCAGTC,-0.211

# Set 2
# Target: Sal-like protein 4, full length isoform B (SALL4, Homo sapiens, UniProt Q9UJQ4-2, residues 1-616)
# Method: universal PBM
# Form: double-stranded DNA, one strand shown
# Medium: in vitro
# Concentration: not given
# Notes: 8-mer, flanks averaged, mean of replicates
# Reading: higher = stronger binding
# Target sequence (chain): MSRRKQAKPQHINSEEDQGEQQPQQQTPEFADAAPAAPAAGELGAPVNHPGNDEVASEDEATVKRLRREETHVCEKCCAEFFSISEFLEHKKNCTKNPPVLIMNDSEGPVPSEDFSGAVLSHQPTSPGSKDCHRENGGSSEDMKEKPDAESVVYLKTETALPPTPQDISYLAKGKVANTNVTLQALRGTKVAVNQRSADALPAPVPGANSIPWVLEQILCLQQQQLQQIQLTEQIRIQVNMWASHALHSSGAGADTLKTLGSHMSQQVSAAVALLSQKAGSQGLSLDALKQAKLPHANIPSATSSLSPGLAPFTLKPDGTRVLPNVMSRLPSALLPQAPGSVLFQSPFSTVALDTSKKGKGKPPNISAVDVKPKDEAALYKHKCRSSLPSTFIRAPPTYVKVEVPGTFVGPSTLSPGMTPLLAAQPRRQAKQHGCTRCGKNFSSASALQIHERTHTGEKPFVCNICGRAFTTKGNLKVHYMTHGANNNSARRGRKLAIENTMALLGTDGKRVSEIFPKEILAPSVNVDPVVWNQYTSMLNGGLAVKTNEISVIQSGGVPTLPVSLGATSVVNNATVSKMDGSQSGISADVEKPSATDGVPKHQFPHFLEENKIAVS
Oligonucleotide,E-score
CCAGAGAA,-0.0142
CCTCAAGC,-0.259
GGTACACA,-0.0311

# Further values, each from its own experiment
# IRF5 K96S/S451D/S453D/S456D/S462D full length, phosphomimetic: Interferon regulatory factor 5, full length, phosphomimetic (IRF5, Homo sapiens, UniProt Q13568-2, residues 1-514, K96S/S451D/S453D/S456D/S462D)
# IRF7 S101K/S471D/S472D/S475D/S476D/S477D/S483D/S484D/S487D full length, phosphomimetic: Interferon regulatory factor 7, full length, phosphomimetic (IRF7, Homo sapiens, UniProt Q92985, residues 1-503, S101K/S471D/S472D/S475D/S476D/S477D/S483D/S484D/S487D)
# Chain of UniProt Q92985 (whole entry, unmodified, looked up): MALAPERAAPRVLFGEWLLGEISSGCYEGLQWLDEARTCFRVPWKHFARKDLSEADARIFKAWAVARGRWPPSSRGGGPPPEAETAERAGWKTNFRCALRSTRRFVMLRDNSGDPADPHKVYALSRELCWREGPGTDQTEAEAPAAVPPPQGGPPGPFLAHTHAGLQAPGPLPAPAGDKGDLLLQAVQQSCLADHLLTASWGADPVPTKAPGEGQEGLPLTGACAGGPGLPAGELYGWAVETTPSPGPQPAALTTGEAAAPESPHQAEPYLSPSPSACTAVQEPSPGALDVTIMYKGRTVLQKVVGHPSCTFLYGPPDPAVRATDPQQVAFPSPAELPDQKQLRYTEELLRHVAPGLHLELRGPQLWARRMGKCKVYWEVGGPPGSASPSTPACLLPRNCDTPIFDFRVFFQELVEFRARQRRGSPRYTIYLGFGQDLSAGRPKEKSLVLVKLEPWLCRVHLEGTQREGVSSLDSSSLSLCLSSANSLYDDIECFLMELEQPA
Molecule,target,test,system,conditions,scale,endpoint,result
GCCTAGCACTCCCCTCTAGGTCTTCTGAAGTGCTAGGTCTTGATTCGCTTGACGCTGCTG,"IRF5 K96S/S451D/S453D/S456D/S462D full length, phosphomimetic",protein-binding microarray,"double-stranded DNA, one strand shown, in vitro","250 nM, 60-bp whole probe, added: salmon DNA 0.4 mg/ml","reference: random background probes, higher = stronger binding",log fluorescence,-0.383 z-score
"PhoQ, residues 284 288 289 292 302 303 ALSMDL","PhoP, residues 12 14 15 18 19 LHSVQ (Escherichia coli, UniProt P23836)","Sort-seq, refers to: YFP reporter",E. coli,"PhoQ-PhoP variant library, added: 10 µM Mg2+","reference: high Mg2+ state, higher = stronger signaling",fold induction,14.7
GCCTAGCACTCGCACACATACGGCTTCTCGTGCTAGGTCTTGATTCGCTTGACGCTGCTG,"IRF7 S101K/S471D/S472D/S475D/S476D/S477D/S483D/S484D/S487D full length, phosphomimetic",protein-binding microarray,"double-stranded DNA, one strand shown, in vitro","250 nM, 60-bp whole probe, added: salmon DNA 0.4 mg/ml","reference: random background probes, higher = stronger binding",log fluorescence,-0.0944 z-score
GCCTAGCACTTAGGTATCCTTCTCCTTTCGTGCTAGGTCTTGATTCGCTTGACGCTGCTG,"IRF5 K96S/S451D/S453D/S456D/S462D full length, phosphomimetic",protein-binding microarray,"double-stranded DNA, one strand shown, in vitro","250 nM, 60-bp whole probe, added: salmon DNA 0.4 mg/ml","reference: random background probes, higher = stronger binding",log fluorescence,1.04 z-score
GCCTAGCACGACGATTTGAGTCTCGAGACGTGCTAGGTCTTGATTCGCTTGACGCTGCTG,"IRF7 S101K/S471D/S472D/S475D/S476D/S477D/S483D/S484D/S487D full length, phosphomimetic",protein-binding microarray,"double-stranded DNA, one strand shown, in vitro","250 nM, 60-bp whole probe, added: salmon DNA 0.4 mg/ml","reference: random background probes, higher = stronger binding",log fluorescence,0.319 z-score

# For quick reference, copied from above (set 2):
Oligonucleotide,E-score
CCTCAAGC,-0.259
GGTACACA,-0.0311
